Assay results from different studies.
Each numbered part is a random draw from the data of one study; scales do not carry over between parts.
Chain of UniProt O94768 (whole entry, looked up): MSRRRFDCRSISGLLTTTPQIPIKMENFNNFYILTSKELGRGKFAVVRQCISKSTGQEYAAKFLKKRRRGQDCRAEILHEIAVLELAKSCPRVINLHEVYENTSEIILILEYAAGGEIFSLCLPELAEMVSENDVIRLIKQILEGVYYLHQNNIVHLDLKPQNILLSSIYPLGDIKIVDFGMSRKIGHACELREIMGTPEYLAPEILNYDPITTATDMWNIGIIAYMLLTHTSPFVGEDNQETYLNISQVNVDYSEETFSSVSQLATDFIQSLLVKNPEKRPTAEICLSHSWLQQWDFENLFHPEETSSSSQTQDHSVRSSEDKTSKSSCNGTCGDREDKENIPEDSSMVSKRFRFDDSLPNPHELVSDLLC
Chain of UniProt Q9Y2H1 (whole entry, looked up): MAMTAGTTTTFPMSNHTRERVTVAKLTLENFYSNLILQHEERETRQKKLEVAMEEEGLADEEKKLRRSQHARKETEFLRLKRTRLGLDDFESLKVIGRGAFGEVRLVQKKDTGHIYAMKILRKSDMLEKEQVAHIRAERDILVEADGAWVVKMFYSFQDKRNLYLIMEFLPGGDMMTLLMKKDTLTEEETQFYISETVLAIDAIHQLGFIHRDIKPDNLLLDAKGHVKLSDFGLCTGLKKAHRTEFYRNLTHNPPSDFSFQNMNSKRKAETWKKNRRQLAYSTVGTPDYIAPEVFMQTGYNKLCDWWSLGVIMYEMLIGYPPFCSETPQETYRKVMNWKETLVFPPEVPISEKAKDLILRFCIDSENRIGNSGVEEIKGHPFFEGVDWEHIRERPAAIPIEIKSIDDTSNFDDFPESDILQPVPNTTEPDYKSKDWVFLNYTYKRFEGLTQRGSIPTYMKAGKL
Chain of UniProt P11802 (whole entry, looked up): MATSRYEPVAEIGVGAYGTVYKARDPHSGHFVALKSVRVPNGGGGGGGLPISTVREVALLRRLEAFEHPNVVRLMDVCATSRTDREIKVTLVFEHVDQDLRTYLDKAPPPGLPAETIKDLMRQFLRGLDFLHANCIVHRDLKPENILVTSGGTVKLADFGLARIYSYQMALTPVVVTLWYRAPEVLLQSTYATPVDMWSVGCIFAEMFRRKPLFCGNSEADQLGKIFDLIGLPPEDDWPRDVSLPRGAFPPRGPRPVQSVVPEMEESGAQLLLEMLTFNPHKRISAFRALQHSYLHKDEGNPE
Chain of UniProt O43318 (whole entry, looked up): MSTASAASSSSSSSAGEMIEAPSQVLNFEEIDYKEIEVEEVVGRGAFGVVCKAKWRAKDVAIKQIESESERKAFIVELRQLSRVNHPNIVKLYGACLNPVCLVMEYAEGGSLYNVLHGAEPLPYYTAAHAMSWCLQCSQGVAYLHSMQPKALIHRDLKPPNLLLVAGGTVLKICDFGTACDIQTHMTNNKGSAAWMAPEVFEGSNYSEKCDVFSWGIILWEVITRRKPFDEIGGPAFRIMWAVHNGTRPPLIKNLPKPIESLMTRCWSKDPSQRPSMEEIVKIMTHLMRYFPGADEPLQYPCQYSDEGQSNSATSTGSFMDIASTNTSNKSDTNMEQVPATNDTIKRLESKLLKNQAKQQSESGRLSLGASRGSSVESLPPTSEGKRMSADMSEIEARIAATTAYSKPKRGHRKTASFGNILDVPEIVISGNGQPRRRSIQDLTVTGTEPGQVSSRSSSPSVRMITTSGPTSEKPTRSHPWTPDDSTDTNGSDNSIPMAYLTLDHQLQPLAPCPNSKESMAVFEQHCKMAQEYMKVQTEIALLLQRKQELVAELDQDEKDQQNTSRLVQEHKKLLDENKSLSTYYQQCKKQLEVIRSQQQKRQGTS
Chain of UniProt P36894 (whole entry, looked up): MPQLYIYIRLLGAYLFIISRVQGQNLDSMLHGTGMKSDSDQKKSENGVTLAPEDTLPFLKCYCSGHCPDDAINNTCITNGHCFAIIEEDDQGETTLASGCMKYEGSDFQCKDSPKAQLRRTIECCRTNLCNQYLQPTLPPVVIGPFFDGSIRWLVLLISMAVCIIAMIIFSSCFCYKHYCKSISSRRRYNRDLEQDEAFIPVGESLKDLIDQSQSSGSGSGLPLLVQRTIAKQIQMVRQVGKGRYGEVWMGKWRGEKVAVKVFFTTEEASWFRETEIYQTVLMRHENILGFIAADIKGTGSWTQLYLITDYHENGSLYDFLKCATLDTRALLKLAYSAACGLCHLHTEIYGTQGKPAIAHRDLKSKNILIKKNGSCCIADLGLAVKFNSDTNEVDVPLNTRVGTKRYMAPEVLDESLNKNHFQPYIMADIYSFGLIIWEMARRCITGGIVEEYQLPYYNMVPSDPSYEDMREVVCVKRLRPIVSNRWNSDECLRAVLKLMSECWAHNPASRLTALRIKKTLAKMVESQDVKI
Chain of UniProt Q9UIK4 (whole entry, looked up): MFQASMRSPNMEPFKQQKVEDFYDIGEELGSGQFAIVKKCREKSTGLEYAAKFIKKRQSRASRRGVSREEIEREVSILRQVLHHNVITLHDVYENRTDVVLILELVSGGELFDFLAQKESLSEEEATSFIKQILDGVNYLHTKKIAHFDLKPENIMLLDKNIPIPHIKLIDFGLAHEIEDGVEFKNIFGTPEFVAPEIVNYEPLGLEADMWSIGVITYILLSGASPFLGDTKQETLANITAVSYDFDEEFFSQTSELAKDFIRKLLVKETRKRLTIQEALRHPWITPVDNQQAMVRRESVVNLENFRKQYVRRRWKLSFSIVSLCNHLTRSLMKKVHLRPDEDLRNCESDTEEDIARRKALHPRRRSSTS

Sample 1
SMILES: CNC(=O)Nc1ccc2c(c1)CC[C@@]21OC(=O)N(CC(=O)N(Cc2ccc(F)cc2)[C@@H](C)C(F)(F)F)C1=O
Technique: competition with immobilised ligand
Tested at: 1 µM
| target | effect on | remaining binding |
| --- | --- | --- |
| STK17B (Homo sapiens, UniProt O94768) | cell-free assay | 100% |
| BMPR1A (Homo sapiens, UniProt P36894) | binding | 91% |
| CDK4 (Homo sapiens, UniProt P11802) | cell-free assay | 55% |
| MAP3K7 (Homo sapiens, UniProt O43318) | cell-free assay | 77% |
| STK38L (Homo sapiens, UniProt Q9Y2H1) | binding | 66% |
| DAPK2 (Homo sapiens, UniProt Q9UIK4) | cell-free assay | 92% |

Sample 2
Target: TAR DNA-binding protein 43, full length, His tag (TARDBP, Homo sapiens, UniProt Q13148, residues 1-414)
Technique: RNA Bind-n-Seq
Molecule type: RNA
Medium: in vitro
Tested at: 20 nM
Setting: 6-mer, flanks averaged, single round
With: 150 mM LiCl
Reference: input library
Reading: higher = stronger binding
| Strand | 6-mer enrichment (R) |
| --- | --- |
| UCGUCC | 0.956 |
| UCGAAC | 0.811 |
| UUGUCC | 1.02 |
| GGCCAU | 0.952 |
| GGCAUC | 0.886 |
| AAGUCC | 0.846 |
| AAGAUU | 0.811 |
| GCGGGU | 1.17 |

Sample 3
Target: Fibroblast growth factor receptor 4 (FGFR4, Homo sapiens, UniProt P22455)
Chain of UniProt P22455 (whole entry, looked up): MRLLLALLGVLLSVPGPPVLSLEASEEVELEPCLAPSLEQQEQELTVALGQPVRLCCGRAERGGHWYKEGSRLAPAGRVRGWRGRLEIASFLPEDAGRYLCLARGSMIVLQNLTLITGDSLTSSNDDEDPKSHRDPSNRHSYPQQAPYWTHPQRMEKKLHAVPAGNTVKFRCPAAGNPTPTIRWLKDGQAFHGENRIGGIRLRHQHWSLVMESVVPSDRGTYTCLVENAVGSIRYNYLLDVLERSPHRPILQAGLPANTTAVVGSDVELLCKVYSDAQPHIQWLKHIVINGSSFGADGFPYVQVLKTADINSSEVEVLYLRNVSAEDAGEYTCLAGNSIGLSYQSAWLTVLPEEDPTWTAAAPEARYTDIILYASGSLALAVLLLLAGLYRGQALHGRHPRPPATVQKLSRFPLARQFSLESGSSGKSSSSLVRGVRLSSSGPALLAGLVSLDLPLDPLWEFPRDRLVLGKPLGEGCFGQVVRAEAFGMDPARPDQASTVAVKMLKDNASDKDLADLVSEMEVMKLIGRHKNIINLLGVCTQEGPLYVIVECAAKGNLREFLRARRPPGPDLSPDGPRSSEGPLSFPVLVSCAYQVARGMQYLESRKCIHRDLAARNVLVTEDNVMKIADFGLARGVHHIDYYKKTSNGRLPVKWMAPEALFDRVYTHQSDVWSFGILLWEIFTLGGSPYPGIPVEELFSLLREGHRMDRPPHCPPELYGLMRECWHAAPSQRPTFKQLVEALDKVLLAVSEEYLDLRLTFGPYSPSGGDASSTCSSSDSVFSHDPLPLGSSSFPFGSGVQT
Effect on: enzyme activity
Action: inhibitor
Tested at: 0.5 µM
Reference: control
| SMILES | remaining activity [%] |
| --- | --- |
| Cc1ccc(NC(=O)c2ccc(CN3CCN(C)CC3)cc2)cc1Nc1nc(-c2cccnc2)cs1 | 89.8 |
| Cc1cccc(-c2[nH]c(C(C)(C)C)nc2-c2ccc3c(c2)OCO3)n1 | 73.8 |
| CO[C@H]1C[C@@H]2CC[C@@H](C)[C@@](O)(O2)C(=O)C(=O)N2CCCC[C@H]2C(=O)O[C@H]([C@H](C)C[C@@H]2CC[C@@H](O)[C@H](OC)C2)CC(=O)[C@H](C)/C=C(\C)[C@@H](O)[C@@H](OC)C(=O)[C@H](C)C[C@H](C)/C=C/C=C/C=C/1C | 76.6 |
| O=S(=O)(c1cccc2cnccc12)N1CCCNCC1 | 82.8 |
| Cc1nc(-c2ccccc2)c(-c2ccncc2)o1 | 76.5 |
| O=C(O)c1ccc2c3c1cccc3c(=O)n1c3ccccc3nc21 | 88.6 |
| Nc1[nH]nc2nc3ccccc3nc12 | 94.9 |
| O=C1NC(=O)C(c2cn(CCCn3ccnc3)c3ccccc23)=C1Nc1ccccc1 | 74.6 |
| Cn1sc(=O)n(Cc2ccccc2)c1=O | 97.2 |
| O=C1NC(=O)C(c2cn(CCCO)c3ncccc23)=C1c1cnccn1 | 91.5 |
| COc1ccc(CNC(=O)Nc2ncc([N+](=O)[O-])s2)cc1 | 98.9 |
| Oc1ccc(-c2nc(-c3ccncc3)c(-c3ccc(F)cc3)[nH]2)cc1 | 92.9 |
| O=C(CCCc1ccc(-c2ccccc2F)cc1)Nc1ccc(O)cc1 | 106 |
| O=C(Nc1cccc(Nc2cc(Nc3cccc(C(F)(F)F)c3)ncn2)c1)C1CC1 | 102 |
| COc1ccc(OC)c2c(=S)c3ccccc3[nH]c12 | 91.1 |

Sample 4
Target: RNA binding protein fox-1 homolog 2, RRM domain, GST-SBP tag (RBFOX2, Homo sapiens, UniProt O43251-10, residues 100-194)
Technique: RNA Bind-n-Seq
Molecule type: RNA
Medium: in vitro
Tested at: 365 nM
Setting: natural RNA segment, single round, ends assumed
Reference: no-protein control
Reading: higher = stronger binding
Shared flanks, not repeated: GGGAGUUCUACAGUCCGACGAUC … UGGAAUUCUCGGGUGCCAA
Target sequence (chain): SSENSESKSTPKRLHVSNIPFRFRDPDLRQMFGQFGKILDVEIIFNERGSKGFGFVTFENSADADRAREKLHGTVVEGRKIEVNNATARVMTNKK
| Strand | RBNS enrichment (R) |
| --- | --- |
| AUGGCUUUCAUCCUGUGUCCCCUGACCUGUCCAGGUGAGUGUGAGGGCAGCACUGGGAAGCUGGAGUGCUGCUUGUGCCUCCCUUCCCAGUGGGCUGUGUUGACUGCUGC | 0.359 |
| UUUGUGAUCCUGAUAUGUCACAUAUAAUAGCUUUGUUACCUGGAGUAUUUGAUUAACCUAAACAGUUUAAGCAUUUUGAAUUAGUUGGAGUUUAAAUGGAUUACAUUUGG | 0.439 |
| GCCAGAGGGAACUGCCCUGCAAGGGUGGGCCCCCAGCCGGCAGGGGAACUUUCUAGACUCCCGCUCAUUCAAUUGAUCUAGGCAUUUGGGCUUGCUACUUGACCAUUCUC | 0.23 |
| UCCCUCGCUCGCUCCGGCUUCUCUGCUUUCCCAGGUCUCAGAAAAGAAACCCCUCCACAUCCCCGAGGCAGCCCGAUGGCUUCCAGGGUGGCUCGGGCAAGUGGAAGCAC | 0.581 |
| CCCCCAUACCACUGUGUUCCUUCUGUAACGCCACGUUCUCCCUCCAGCAUGCCGAGCACAAUGUCCACCCACUUGUGCUGUGUAGACUGUUGCAUACAGCUGAGUACAGU | 3.18 |
| AGAAUCCAGAGACCAAACCCUGACCCACCUCCUUCCUUUCCUCCAGCCCACGCUGGUCUGUCCCCAUGCCUUCCCAGGGCUUCUUCAUGUCGGAUGCACCCAAGUCCUUA | 0.837 |
| UGAAGGUAAAACAUAGUGUAUCAUUGUGUAAACUCCCAGGCUUGAUGUAGCAGAAGAGAUCAUUUCUGGAGGCUUCAGCAAUGGAAUUUAGCAUUAUAAGAGAGAUUGGA | 0.805 |
| AGGAGUUACACAUACAUUUUAUCCUGUCAUACCUCGAGAUAAAGUGGCAUGUUAGUGAGGAGUUCUGAUAUUAAGCACACACACACAUGCACACAAAUGGACUUCUCUGA | 0.862 |
